# Published values pooled from the literature.
# Each line is one published result; not all experiments were run side by side. “And” joins repeats or separate records; there may be more than shown. ± gives the spread as reported.
# PHO85: Negative regulator of the PHO system (PHO85, Candida albicans, UniProt Q9HGY5)
# TOP2A: DNA topoisomerase 2-alpha (TOP2A, Homo sapiens, UniProt P11388)
# ZBTB11/CRBN: ZBTB11/CRBN (Homo sapiens, UniProt O95625+Q96SW2)
SMILES,target,assay,system,setting,how to read,measurement,value
O=C(O)c1ccc(Nc2ncc3c(n2)-c2ccc(Cl)cc2C(c2c(F)cccc2F)=NC3)cc1,human CK2α2(h),kinase activity,,1 µM,,remaining activity,120%
NCCCC(=O)O,"Sodium- and chloride-dependent taurine transporter (SLC6A6, Homo sapiens, UniProt P31641, G62A)","binding, microscale thermophoresis",,"977 nM, room temperature, together with: 50 nM labelled protein",higher = more binding,normalised MST signal,-0.0256
N#Cc1ccc2c(-c3ccncc3)c(-c3ccc(F)cc3)nn2c1,PHO85,"kinase binding, competitor, MIB/MS competition, measured: PHO85",Candida albicans cell lysate,10 µM,baseline: DMSO,log2 fold change,0.465
O=C(NC1CCC1)c1ccc2nc(-c3cccc(NS(=O)(=O)NCCN4CCCCC4)c3)cn2c1,"Bone morphogenetic protein receptor type-2 (BMPR2, Homo sapiens, UniProt Q13873)",enzyme activity,,10 µM,,remaining activity,100%
CN(C)C[C@@H]1CCn2cc(c3ccccc32)C2=C(C(=O)NC2=O)c2cn(c3ccccc23)CCO1,"Glycogen synthase kinase-3 alpha (GSK3A, Homo sapiens, UniProt P49840)","kinase activity, inhibitor, Z'-LYTE",,,,Hill slope,1.14
O=c1cc(-c2ccc([N+](=O)[O-])cc2)[nH]c2c(-c3ccc(Cl)cc3)c(Cc3ccccc3)nn12,"PDZ domain-containing protein GIPC1 (GIPC1, Homo sapiens, UniProt O14908)","thermal stability, binder, thermal proteome profiling","RD, cell lysate","50 µM, 0.5% DMSO",baseline: DMSO vehicle,melting temperature shift,2.7 °C
CCOc1cc(-c2nncn2C)ccc1Nc1ncc2cc(C)nc(NCC(C)(C)C)c2n1,"Serine/threonine-protein kinase NLK (NLK, Homo sapiens, UniProt Q9UBE8)","binding, LanthaScreen binding",,1 µM,,displacement,78%
Nc1ncnc2c1ncn2[C@@H]1O[C@H](COP(=O)(O)CP(=O)(O)OP(=O)(O)O)[C@@H](O)[C@H]1O,"P2X purinoceptor 1 (P2RX1, Homo sapiens, UniProt P51575, D97A)",saturation binding,,25 nM,,specific binding,4010 corrected cpm and 2130 corrected cpm
O=C(O)c1cccc(-c2noc(-c3ccccc3F)n2)c1,"Flavin reductase (NADPH) (BLVRB, Homo sapiens, UniProt P30043)",binding,,,,kon,3110 M⁻¹ s⁻¹
CC(=O)Oc1ccc([N+](=O)[O-])cc1,"Methylesterase 9 (MES9, Arabidopsis thaliana, UniProt O23171)",substrate,,,,Km,1920 ± 311 µM
Oc1ccccc1-c1n[nH]cc1-c1ccnc2ccccc12,PHO85,"kinase binding, MIB/MS competition",Candida albicans lysate,10 µM,"baseline: DMSO, negative = stronger binding",log2 fold change,0.5
CC(=O)N[C@H](C(=O)N1C[C@H](O)C[C@H]1C(=O)NCc1ccc(-c2scnc2C)cc1)C(C)(C)SCCCCCCNC(=O)C[C@@H]1N=C(c2ccc(Cl)cc2)c2c(sc(C)c2C)-n2c(C)nnc21,"Bromodomain-containing protein 3, BD1 (BRD3, Homo sapiens, UniProt Q15059)","binding, ITC",,"25 °C, compound in cell, protein in syringe",,ΔH,-76.99 ± 0.418 kJ/mol
CCCCc1nc2c(N)nc3ccccc3n2n1,"Toll-like receptor 7 (TLR7, Homo sapiens, UniProt Q9NYK1)","reporter gene, agonist, NF-κB reporter",HEK-Blue TLR7,,,EC50,inactive
Oc1ccc(/C=C/c2cc(O)cc(O)c2)cc1,"O-methyltransferase (Sorghum bicolor, UniProt A0A1B6PFV1)",,,"concentration not given, together with: MET+",,ΔG of binding,-31 kJ/mol
Cc1cc2nc3c(=O)[nH]c(=O)nc-3n(C[C@H](O)[C@H](O)[C@H](O)COP(=O)(O)O)c2cc1C,"NADH-dependent FMN reductase SfnF (sfnF, Pseudomonas fluorescens, UniProt Q3K9A2)",surface plasmon resonance,,,,koff,0.211 s⁻¹
Cc1nc(CSc2nc(SCc3ccc(C(C)C)cc3)nc(=O)[nH]2)cs1,TOP2A,DNA cleavage,,125 µM,,mean linear DNA,2.7%
O=C1CCC(N2C(=O)C=C(Nc3cccc(C(NCCc4ccc(C(F)(F)F)c(Cl)c4)c4ccccc4)c3)C2=O)C(=O)N1 (stereo not drawn),ZBTB11/CRBN,"protein degradation, degrader, HiBiT luminescence",MOLT-4,,,Dmax,38%
Nc1ccc(C(=O)O)cc1,"BEST1, with wild-type BEST1 (Homo sapiens, UniProt O76090, A10T)",whole-cell patch clamp,HEK293 co-expressing WT and A10T mutant,"concentration not given, membrane potential 20 mV",,current density,5.97 pA/pF and 2.72 pA/pF and 4.63 pA/pF and 10.2 pA/pF and 6.04 pA/pF and 2.28 pA/pF
CC[C@H](C)[C@@H]1NC(=O)[C@H](C)NC(=O)[C@H]([C@@H](C)CC)NC(=O)[C@H](CCC(N)=O)NC(=O)[C@H](C)NC(=O)[C@H](CCCNC(=N)N)NC(=O)[C@H](C(C)C)NC(=O)[C@H](CC(C)C)NC(=O)[C@H](CCC(=O)O)NC(=O)[C@H](CCCNC(=N)N)NC(=O)CNC(=O)[C@@H](NC(=O)[C@H](CC(C)C)NC(=O)[C@H](CCCCN)NC(=O)[C@@H](NC(=O)[C@@H](NC(=O)[C@H](CCC(=O)O)NC(=O)[C@H](CCC(=O)O)NC(=O)[C@H](CCSC)NC(=O)[C@H](Cc2c[nH]c3ccccc23)NC(=O)[C@H](CO)NC(=O)[C@@H](N)CC(=O)O)C(C)C)[C@@H](C)CC)CSSC[C@@H]2NC(=O)[C@@H](NC(=O)[C@H](CCCCN)NC(=O)[C@H](CC(N)=O)NC(=O)[C@H](C)NC(=O)[C@H](CC(C)C)NC(=O)[C@H](C)NC(=O)[C@H](CO)NC(=O)[C@H](Cc3ccc(O)cc3)NC(=O)[C@H](CC(C)C)NC(=O)[C@H](CCC(N)=O)NC(=O)c3ccc(-c4c5ccc(=[N+](C)C)cc-5oc5cc(N(C)C)ccc45)c(C(=O)[O-])c3)CSSC[C@H](NC(=O)CNC(=O)[C@H](C(C)C)NC(=O)[C@H](Cc3c[nH]cn3)NC2=O)C(=O)N[C@@H]([C@@H](C)O)C(=O)N[C@@H](CCCCN)C(=O)N[C@@H](CCCNC(=N)N)C(=O)N[C@@H](CO)C(=O)N[C@@H](CC(C)C)C(=O)N[C@@H](C)C(=O)N[C@@H](CCCNC(=N)N)C(=O)N[C@@H](Cc2ccccc2)C(=O)N[C@H](C(=O)O)CSSC[C@@H](C(=O)NCC(=O)N[C@@H](CCSC)C(=O)N[C@@H](CO)C(=O)N[C@H](C(=O)N[C@@H](Cc2c[nH]c3ccccc23)C(=O)N[C@@H](CO)C(=O)O)[C@@H](C)O)NC1=O,"Relaxin receptor 1 (RXFP1, Homo sapiens, UniProt Q9HBX9)",NanoBRET,,"concentration not given, together with: relaxin 10 µM",,fast dissociation fraction,21.1%
O=c1nc(SCc2cc(F)cc(C(F)(F)F)c2)nc(SCc2ccc3sccc3c2)[nH]1,TOP2A,decatenation,,"125 µM, replicate 1",,decatenated DNA,3.46%
CC(C)CCC[C@@H](C)[C@H]1CC[C@H]2[C@@H]3CC=C4C[C@@H](O)CC[C@]4(C)[C@H]3CC[C@]12C,"Cholesterol side-chain cleavage enzyme, mitochondrial (CYP11A1, Homo sapiens, UniProt P05108)",,,together with: 40-fold excess adrenodoxin,baseline: no adrenodoxin,Kd increase,1.7 fold
Nc1nc2c(ncn2[C@@H]2O[C@@H]3COP(=O)(O)O[C@H]4[C@@H](O)[C@H](n5cnc6c(=O)[nH]c(N)nc65)O[C@@H]4COP(=O)(O)O[C@H]3[C@H]2O)c(=O)[nH]1,"Cell cycle histidine kinase CckA, DHp-CA domains (Caulobacter vibrioides, UniProt Q9X688)","binding, ITC",,together with: ADP 5 mM,,association constant,29300 ± 4870 M⁻¹
CCC(C)(NCCc1ccc(C(F)(F)F)cc1C(F)(F)F)c1cccc(NC2=CC(=O)N(C3CCC(=O)NC3=O)C2=O)c1 (stereo not drawn),ZBTB11/CRBN,"protein degradation, degrader, HiBiT luminescence",MOLT-4,,,Dmax,53%
N[C@@H](Cc1ccc(O)cc1)C(=O)Nc1ccc2ccccc2c1,rat neuron-specific aminopeptidase,substrate,,MW 110 kDa,,kcat,11.2 s⁻¹
Cc1cc(-c2ccnc3[nH]cc(F)c23)cc(F)c1[C@@]1(O)[C@H](C)CN(C(=O)CN)C[C@@H]1C,"Serine/threonine-protein kinase 38 (STK38, Homo sapiens, UniProt Q15208)","ATP probe binding, KiNativ, measured: Lys1 site",HEK293T cell lysate,0.1 µM,,inhibition,5.9%
O=c1ccn([C@@H]2O[C@H](COP(=O)(O)OP(=O)(O)O)[C@@H](O)[C@H]2O)c(=O)[nH]1,"Histo-blood group ABO system transferase (ABO, Homo sapiens, UniProt P16442, G268A/L266G)",methyl-TROSY NMR titration,,apo enzyme,,koff,6.8 ± 0.4 s⁻¹
Nc1nc2c(ncn2[C@@H]2O[C@H](COP(=O)(O)O)[C@@H](O)[C@H]2O)c(=O)[nH]1,"GUK1 (Homo sapiens, UniProt Q16774)",ITC,,concentration not given,,ΔG of binding,-25.1 kJ/mol
O=C(O)C1=CC(=C(c2ccc(O)c(C(=O)O)c2)c2ccc(O)c(C(=O)O)c2)C=CC1=O,"Flap endonuclease 1 (Homo sapiens, UniProt P39748)",gel radiotracer,,"0.1 µM, 5 min, room temperature, together with: single-flap substrate 50 nM",,substrate conversion,2% and 1%
COc1cccc2c(-c3ccc(C)cc3)cc(C(=O)Nc3ccc(C(=O)O)cc3)nc12,"Retinoic acid receptor gamma (RARG, Homo sapiens, UniProt P13631)","reporter gene, antagonist",,"up to 3300 nM, together with: ATRA 8 nM (EC80)",,IC50,inactive
O=S(=O)(O)C1CCNCC1,"Sodium- and chloride-dependent taurine transporter (SLC6A6, Homo sapiens, UniProt P31641, Y138A)","binding, microscale thermophoresis",,"250 µM, room temperature, together with: 50 nM labelled protein",higher = more binding,normalised MST signal,0.0467
C=CC(=O)N1CCC(COCC(=O)N2CCN(c3nc(-c4cnc(N)nc4C(F)F)nc(N4CCOC[C@@H]4C)n3)CC2)CC1,"Macrophage colony-stimulating factor 1 receptor (CSF1R, Homo sapiens, UniProt P07333)",KINOMEscan,,1 µM,,remaining binding,86%
CCCCCCCCCCCCCCCC(=O)NCCO,"NAD-dependent protein deacylase sirtuin-6 (SIRT6, Homo sapiens, UniProt Q8N6T7)","enzyme activity, activator, HPLC-MS",,"10 µM, 30 min, 37 °C, 1% DMSO, together with: H3K9Ac peptide 40 µM with NAD 500 µM",baseline: no compound,deacetylation fold increase,2 fold
CC[C@@H]1[C@H](F)C(=O)N[C@@H]1COc1nccc2cc(C(N)=O)c(OC)cc12,"Interleukin-1 receptor-associated kinase 3 (IRAK3, Homo sapiens, UniProt Q9Y616)","ATP-site probe binding, inhibitor, ActivX ATP probe profiling",THP-1 cell lysate,"0.04 mM, kinase domain site",,inhibition,-1.7%

# Excerpt of the above:
SMILES,target,assay,system,setting,how to read,measurement,value
COc1cccc2c(-c3ccc(C)cc3)cc(C(=O)Nc3ccc(C(=O)O)cc3)nc12,"Retinoic acid receptor gamma (RARG, Homo sapiens, UniProt P13631)","reporter gene, antagonist",,"up to 3300 nM, together with: ATRA 8 nM (EC80)",,IC50,inactive
O=S(=O)(O)C1CCNCC1,"Sodium- and chloride-dependent taurine transporter (SLC6A6, Homo sapiens, UniProt P31641, Y138A)","binding, microscale thermophoresis",,"250 µM, room temperature, together with: 50 nM labelled protein",higher = more binding,normalised MST signal,0.0467
C=CC(=O)N1CCC(COCC(=O)N2CCN(c3nc(-c4cnc(N)nc4C(F)F)nc(N4CCOC[C@@H]4C)n3)CC2)CC1,"Macrophage colony-stimulating factor 1 receptor (CSF1R, Homo sapiens, UniProt P07333)",KINOMEscan,,1 µM,,remaining binding,86%
CCCCCCCCCCCCCCCC(=O)NCCO,"NAD-dependent protein deacylase sirtuin-6 (SIRT6, Homo sapiens, UniProt Q8N6T7)","enzyme activity, activator, HPLC-MS",,"10 µM, 30 min, 37 °C, 1% DMSO, together with: H3K9Ac peptide 40 µM with NAD 500 µM",baseline: no compound,deacetylation fold increase,2 fold
CC[C@@H]1[C@H](F)C(=O)N[C@@H]1COc1nccc2cc(C(N)=O)c(OC)cc12,"Interleukin-1 receptor-associated kinase 3 (IRAK3, Homo sapiens, UniProt Q9Y616)","ATP-site probe binding, inhibitor, ActivX ATP probe profiling",THP-1 cell lysate,"0.04 mM, kinase domain site",,inhibition,-1.7%
